Experimental data from different studies.
Several values in a cell are separate wells, animals, samples, runs or records. Numbers after ± are the reported error. ≈ marks a conversion by molar mass, not a printed value.

SMILES | assay | test system | conditions | scale | quantity | result
N[C@@H](CC(=O)O)C(=O)N[C@@H](CCC(=O)O)C(=O)NCC(=O)N1CCC[C@H]1C(=O)O |  | ICR mouse, tail bleeding | oral, 450 µmol/kg | reference: vehicle | spleen index | no effect
CC(=O)N[C@H](CCCCNC(=O)C(C)F)C(=O)N[C@@H](CS)C(=O)N[C@@H](CS)C(=O)N[C@@H](CCC(=O)O)C(=O)N[C@@H](Cc1c[nH]cn1)C(=O)N[C@H](Cc1ccccc1)C(=O)N[C@@H](CCCNC(=N)N)C(=O)N[C@@H](Cc1c[nH]c2ccccc12)C(=O)N[C@@H](CS)C(=O)N[C@@H](CCCNC(=N)N)C(=O)N1CCC[C@H]1C(=O)N[C@H](C(N)=O)C(C)C (stereo partly shown) [fluorine-18 labelled] |  | male C57BL/6 mice, B16-F10 tumour | intravenous, 1 h | reference: tumour over blood | tumour to tissue uptake ratio | 2.03 ± 0.33
CC(C)[C@H]1C(=O)N[C@@H](CCCN=C(N)N)C(=O)NCC(=O)N[C@@H](CC(=O)O)C(=O)N[C@H](Cc2ccccc2)C(=O)N1C | radio-HPLC | female cynomolgus monkey, urine | intravenous, dose not given |  | urinary excretion of unchanged drug | ~50%
[123I]c1cncc(OC[C@@H]2CCN2)c1 | SPECT | human, frontal lobe | intravenous bolus, 9.1 mCi | reference: tissue over plasma | tissue/plasma ratio | 10.6
CN[C@@](C)(C[18F])C(=O)O |  | SCID mouse MDA-MB-468 xenograft, liver | 60 min, post injection |  | tissue uptake | 4.5 ± 0.4 %ID/g
CCCCCOc1ccc(-c2cc(-c3ccc(C(=O)N[C@H]4C[C@@H](O)[C@@H](O)NC(=O)[C@@H]5[C@@H](O)[C@@H](C)CN5C(=O)[C@H]([C@H](O)CC(N)=O)NC(=O)[C@H]([C@H](O)[C@@H](O)c5ccc(O)c(OS(=O)(=O)O)c5)NC(=O)[C@@H]5C[C@@H](O)CN5C(=O)[C@H]([C@@H](C)O)NC4=O)cc3)no2)cc1 |  | young infants, plasma | intravenous, 7 and 10 mg/kg/day pooled, day 4, mean, repeat dosing |  | clearance at steady state | 0.6 mL/min
CCCCCCCC[N+](C)(C)Cc1ccccc1 | substrate depletion | human liver microsomes | 0.5 µM, 0 to 3 h, 37 °C, together with: NADPH |  | intrinsic clearance | 1.54 mL/h/mg protein
O[C@H]1CCCN[C@@H]1CCCn1cnc2c(Cl)c(Cl)ccc21 |  | rat | multiple-dose up to 28 days |  | NOAEL | 200 mg/kg/day
O=C1Nc2ccc(Cl)cc2[C@@](C#CC2CC2)(C(F)(F)F)O1 | LC-MS/MS | female hu-HSC-RAG mouse, brain | dose not given, 1 day after 10-day dosing |  | tissue concentration | < 35 ng/g
CC(=O)O[C@H]1C(=O)[C@@]2(C)[C@H]([C@H](OC(=O)c3ccccc3)[C@]3(O)C[C@H](OC(=O)[C@H](O)[C@@H](NC(=O)c4ccccc4)c4ccccc4)C(C)=C1C3(C)C)[C@]1(OC(C)=O)CO[C@@H]1C[C@@H]2O |  | BALB/c mouse, serum | intraperitoneal, 10 mg/kg every three days, 60 days |  | LDH | 632 U/L and 568 U/L and 608 U/L
Cc1cnc(C(=O)N[C@H]2CCCCC/C=C\[C@@H]3C[C@@]3(C(=O)NS(=O)(=O)C3CC3)NC(=O)[C@@H]3C[C@@H](Oc4nc5ccccc5c5ccccc45)CN3C2=O)cn1 |  | healthy human volunteers, plasma | oral, dose not given, alone, pravastatin interaction study |  | AUC(0-24) | 1610 ng·h/mL
CCCCCOc1ccc(-c2cc(-c3ccc(C(=O)N[C@H]4C[C@@H](O)[C@@H](O)NC(=O)[C@@H]5[C@@H](O)[C@@H](C)CN5C(=O)[C@H]([C@H](O)CC(N)=O)NC(=O)[C@H]([C@H](O)[C@@H](O)c5ccc(O)c(OS(=O)(=O)O)c5)NC(=O)[C@@H]5C[C@@H](O)CN5C(=O)[C@H]([C@@H](C)O)NC4=O)cc3)no2)cc1 |  | preterm neonates, whole cohort, plasma | intravenous, 15 mg/kg/day, repeated dosing, mean |  | clearance | 0.575 mL/min/kg
COc1ccc(C[C@@H]2NC(=O)[C@H]([C@@H](C)O)NC(=O)[C@@H]3[C@@H]4CCN3C(=O)[C@@H]3Cc5cn(c6ccc(F)cc56)CCCCCCN(Cc5ccc(cc5)CCNC(=O)[C@]5(C)CCCN5C2=O)C(=O)CCC(=O)N[C@@H](C)C(=O)N[C@H](CNC(=O)CCCCC[N+](C)(C)C)C(=O)N[C@@H](Cc2cccc(c2)CNC(=O)CO4)C(=O)N3)cc1 |  | fasted healthy humans, plasma | oral, 35 mg single dose, with 1800 mg Labrasol, geometric mean |  | AUC(0-t) | 0.501 µM·h
O=C(O[C@@H]1Cc2c(O)cc(O)cc2O[C@@H]1c1cc(O)c(O)c(O)c1)c1cc(O)c(O)c(O)c1 | cell viability, MTT | mouse lung slices | 48 h |  | CC50 | > 500 µM
CC[C@H](C)[C@H](NC(=O)[C@@H](N)CCCNC(=N)N)C(=O)N[C@H](C(=O)N1CCC[C@H]1C(=O)N[C@@H](C)C(N)=O)C(C)C |  | healthy volunteers, both sexes, plasma | intravenous infusion, 8.0 mg/kg, single ascending dose |  | Tmax | 4.1 ± 0.4 min
CSCC[C@@H]1NC(=O)[C@H](CC(=O)O)NC(=O)CNC(=O)[C@H](CCCNC(=N)N)NC(=O)[C@H](C)NC(=O)[C@H](CCC(=O)O)NC(=O)[C@H](CCCNC(=N)N)NC(=O)[C@@H]2CSSC[C@@H]3NC(=O)[C@H](CO)NC(=O)[C@H]([C@@H](C)O)NC(=O)[C@@H]4CCCN4C(=O)[C@H](C)NC(=O)[C@H](Cc4c[nH]c5ccccc45)NC(=O)[C@H](CC(=O)O)NC(=O)CNC(=O)[C@H](CCCNC(=N)N)NC(=O)CNC(=O)[C@H](CCC(N)=O)NC(=O)[C@@H]4CCCN4C(=O)[C@@H](NC(=O)CNC(=O)C(C)F)CSSC[C@H](NC(=O)CNC(=O)[C@H](C)NC(=O)[C@H](CC(C)C)NC(=O)[C@H](CSSC[C@@H](C(=O)NCC(N)=O)NC(=O)[C@H]([C@@H](C)O)NC(=O)[C@H](CCCNC(=N)N)NC(=O)[C@@H]4CCCN4C1=O)NC(=O)[C@H](CC(=O)O)NC(=O)[C@H](CO)NC(=O)[C@H](CC(=O)O)NC(=O)[C@H](CCC(N)=O)NC(=O)[C@H](CO)NC3=O)C(=O)N[C@@H](C(C)C)C(=O)N2 (stereo partly shown) [fluorine-18 labelled] |  | nude mouse, U-87 MG xenograft, intestine | intravenous, 2.5 h, together with: cyclo(RGDyK) co-injected |  | tissue uptake | 0.28 ± 0.08 %ID/g
CC(C)C[C@H](NC(=O)[C@H](C)NC(=O)[C@H](Cc1c[nH]cn1)NC(=O)[C@H](CO)NC(=O)[C@H](CCCCN)NC(=O)[C@H](Cc1ccccc1)NC(=O)CNC(=O)[C@@H](N)CC(N)=O)C(=O)N[C@@H](CCC(N)=O)C(=O)N[C@@H](CC(C)C)C(=O)N[C@@H](CC(N)=O)C(=O)N[C@@H](CC(N)=O)C(=O)N[C@@H](CCCNC(=N)N)C(=O)N[C@@H](CCC(N)=O)C(=O)O | LC-MS/MS | human serum | concentration not given, 4 h, room temperature, tube with gel separator | reference: initial concentration | change in serum concentration | -54.5 ± 17%
Cc1nc(-c2nc(-c3ccc(OC(F)(F)F)cc3)no2)nn1Cc1cccc(N2CCC(S(C)(=O)=O)CC2)c1 |  | solid tumour patients | dose not given, treatment-related, without lactic acidosis |  | patients with lactate increase | 87%
CC1N=C(c2ccccc2F)c2cc(Nc3ccc(Cl)cc3)ccc2NC1=O (stereo not shown) | shake flask | PBS | 24 h, pH 7.4 |  | solubility | 6.83 µM (≈ 2.69 µg/mL)
O=C(O)C(F)(F)C(F)(F)C(F)(F)C(F)(F)C(F)(F)C(F)(F)C(F)(F)F | LC-MS | C57BL/6J mouse male, plasma | drinking water, 2 mg/L each PFAS, 12 weeks |  | plasma concentration | 7300 ng/mL
CNC(=O)c1ccc(-c2cnn3ccc(C(=O)N(C)c4ccc(Cl)c(C(=O)OC)c4)cc23)cc1 |  | beagle dogs, both sexes, plasma | oral, 15 mg/kg/day, day 14 |  | Cmax | 20 ng/mL
CC(C)C(=O)OC[C@H]1O[C@@H](n2ccc(NO)nc2=O)[C@H](O)[C@@H]1O |  | rat blood dialysate | 250 ng/mL, 6 h, 10 °C, autosampler stability, together with: NHC 1000 ng/mL |  | remaining compound | 100.3 ± 0.99%

Excerpt of the above:
SMILES | assay | test system | conditions | scale | quantity | result
[123I]c1cncc(OC[C@@H]2CCN2)c1 | SPECT | human, frontal lobe | intravenous bolus, 9.1 mCi | reference: tissue over plasma | tissue/plasma ratio | 10.6
CN[C@@](C)(C[18F])C(=O)O |  | SCID mouse MDA-MB-468 xenograft, liver | 60 min, post injection |  | tissue uptake | 4.5 ± 0.4 %ID/g
CCCCCOc1ccc(-c2cc(-c3ccc(C(=O)N[C@H]4C[C@@H](O)[C@@H](O)NC(=O)[C@@H]5[C@@H](O)[C@@H](C)CN5C(=O)[C@H]([C@H](O)CC(N)=O)NC(=O)[C@H]([C@H](O)[C@@H](O)c5ccc(O)c(OS(=O)(=O)O)c5)NC(=O)[C@@H]5C[C@@H](O)CN5C(=O)[C@H]([C@@H](C)O)NC4=O)cc3)no2)cc1 |  | young infants, plasma | intravenous, 7 and 10 mg/kg/day pooled, day 4, mean, repeat dosing |  | clearance at steady state | 0.6 mL/min
